{"data": "Results pooled from the literature", "note": "Parts stem from different laboratories: compare values within a part only."}
{"data": "Sample 1", "target": "Sal-like protein 4, full length isoform A (SALL4, Homo sapiens, UniProt Q9UJQ4, residues 1-1053)", "technique": "universal PBM", "form": "double-stranded DNA, one strand shown", "sample": "in vitro", "concentration": "600 nM", "setting": "8-mer, flanks averaged, mean of replicates", "direction": "higher = stronger binding", "sequence of UniProt Q9UJQ4 (whole entry, looked up)": "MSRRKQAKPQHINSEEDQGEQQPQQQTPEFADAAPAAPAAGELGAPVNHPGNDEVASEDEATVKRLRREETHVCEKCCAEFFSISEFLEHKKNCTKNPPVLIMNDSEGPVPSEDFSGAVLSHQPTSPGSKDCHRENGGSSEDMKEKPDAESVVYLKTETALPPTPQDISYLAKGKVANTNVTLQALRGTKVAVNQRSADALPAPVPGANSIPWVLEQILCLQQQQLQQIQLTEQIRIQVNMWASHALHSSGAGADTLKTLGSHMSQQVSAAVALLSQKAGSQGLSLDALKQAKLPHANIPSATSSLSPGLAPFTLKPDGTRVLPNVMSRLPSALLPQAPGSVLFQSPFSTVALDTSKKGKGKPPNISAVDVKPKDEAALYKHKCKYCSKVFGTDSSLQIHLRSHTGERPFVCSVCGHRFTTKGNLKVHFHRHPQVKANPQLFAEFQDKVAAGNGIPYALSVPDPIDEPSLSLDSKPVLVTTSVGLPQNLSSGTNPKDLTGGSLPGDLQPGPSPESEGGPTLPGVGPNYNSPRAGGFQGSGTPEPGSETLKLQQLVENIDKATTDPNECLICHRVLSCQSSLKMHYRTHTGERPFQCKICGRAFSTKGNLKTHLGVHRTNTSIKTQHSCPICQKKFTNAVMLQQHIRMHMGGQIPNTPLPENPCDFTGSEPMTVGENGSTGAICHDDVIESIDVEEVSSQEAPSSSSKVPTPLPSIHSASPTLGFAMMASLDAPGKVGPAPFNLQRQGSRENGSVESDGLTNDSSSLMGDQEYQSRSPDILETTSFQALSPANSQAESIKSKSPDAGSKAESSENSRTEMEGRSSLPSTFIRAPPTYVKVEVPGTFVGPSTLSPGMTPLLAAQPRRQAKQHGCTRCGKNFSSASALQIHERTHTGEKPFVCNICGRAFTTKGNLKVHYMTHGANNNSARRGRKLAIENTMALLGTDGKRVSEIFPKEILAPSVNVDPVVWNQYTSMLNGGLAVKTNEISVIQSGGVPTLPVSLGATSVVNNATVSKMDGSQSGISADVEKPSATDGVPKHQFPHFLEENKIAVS"}
{"Sequence": "AAGCGCAC", "E-score": -0.139}
{"Sequence": "AGACTCCA", "E-score": -0.0806}
{"Sequence": "AAACCTCA", "E-score": -0.0413}
{"Sequence": "ATTGCAGC", "E-score": 0.0695}
{"data": "Sample 2", "target": "Interferon regulatory factor 7, full length, phosphomimetic (IRF7, Homo sapiens, UniProt Q92985, residues 1-503, S471D/S472D/S475D/S476D/S477D/S483D/S484D/S487D)", "technique": "protein-binding microarray", "form": "double-stranded DNA, one strand shown", "sample": "in vitro", "concentration": "2200 nM top", "setting": "60-bp whole probe", "added": "salmon DNA 0.4 mg/ml", "relative to": "random background probes", "direction": "higher = stronger binding", "constant ends, left off below": "GCCTAGCAC … GTCTTGATTCGCTTGACGCTGCTG", "Construct (chain)": "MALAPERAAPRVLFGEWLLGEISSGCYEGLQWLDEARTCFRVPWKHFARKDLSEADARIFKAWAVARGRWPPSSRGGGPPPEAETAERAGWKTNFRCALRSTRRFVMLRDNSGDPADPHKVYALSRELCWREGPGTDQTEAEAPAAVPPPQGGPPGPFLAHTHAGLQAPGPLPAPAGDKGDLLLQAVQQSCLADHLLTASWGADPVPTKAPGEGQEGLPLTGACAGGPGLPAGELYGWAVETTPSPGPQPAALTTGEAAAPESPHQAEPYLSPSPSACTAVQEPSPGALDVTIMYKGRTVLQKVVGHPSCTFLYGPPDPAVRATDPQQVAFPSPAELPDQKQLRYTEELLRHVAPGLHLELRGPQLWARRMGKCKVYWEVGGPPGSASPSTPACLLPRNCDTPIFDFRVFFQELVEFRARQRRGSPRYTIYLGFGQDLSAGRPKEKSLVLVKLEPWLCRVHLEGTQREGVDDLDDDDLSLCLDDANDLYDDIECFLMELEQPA"}
{"Sequence": "GACGGTTTCGGGCATCGGGACGTGCTA", "fitted relative affinity [z-score]": 2.34}
{"Sequence": "GACGATTCCAGTTTCGAGAAGTGCTAG", "fitted relative affinity [z-score]": 2.38}
{"Sequence": "TCATATTCATATATATAACTGTGCTAG", "fitted relative affinity [z-score]": 1.24}
{"Sequence": "TCACTTTGCCTTTTGCTACTGTGCTAG", "fitted relative affinity [z-score]": 3.86}
{"Sequence": "GACGGTCTGGGGTATCGGGACGTGCTA", "fitted relative affinity [z-score]": -0.791}
{"data": "Sample 3", "target": "Sox-I, HMG box (Salpingoeca helianthica)", "technique": "Spec-seq", "form": "double-stranded DNA, one strand shown", "sample": "in vitro", "concentration": "not given", "setting": "whole probe, mean of replicates", "relative to": "not given", "direction": "lower = stronger binding", "constant ends, left off below": "GAGTCGTCTCGTCAGCAC … CCGTAGAGCACTCAGGTC", "Residues (chain)": "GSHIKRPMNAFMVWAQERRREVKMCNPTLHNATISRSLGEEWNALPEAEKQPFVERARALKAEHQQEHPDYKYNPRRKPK"}
{"Sequence": "GTGCGTT", "relative binding energy [ln ratio]": 1.03}
{"Sequence": "TAGAGTT", "relative binding energy [ln ratio]": 0.45}
{"Sequence": "CATGCCT", "relative binding energy [ln ratio]": 1.01}
{"Sequence": "TAACGTT", "relative binding energy [ln ratio]": 0.677}
{"Sequence": "CATGACA", "relative binding energy [ln ratio]": 0.512}
{"data": "Further values, each from its own experiment"}
{"Molecule": "PhoQ, residues 284 288 289 292 302 303 NLAAMI", "target": "PhoP, residues 12 14 15 18 19 DLLYY (Escherichia coli, UniProt P23836)", "assay": "Sort-seq, item: YFP reporter", "test system": "E. coli", "conditions": "PhoQ-PhoP variant library, added: 10 µM Mg2+", "scale": "relative to: high Mg2+ state, higher = stronger signaling", "quantity": "fold induction", "value": 1.2}
{"note": "Repeated from above (sample 3):"}
{"Sequence": "GTGCGTT", "relative binding energy [ln ratio]": 1.03}
